Values quoted from earlier work that unrelated publications cite.
Numbers after ± are the reported error.
Midkine: Midkine (Homo sapiens, UniProt P21741)
Chain of UniProt P21741 (whole entry, looked up): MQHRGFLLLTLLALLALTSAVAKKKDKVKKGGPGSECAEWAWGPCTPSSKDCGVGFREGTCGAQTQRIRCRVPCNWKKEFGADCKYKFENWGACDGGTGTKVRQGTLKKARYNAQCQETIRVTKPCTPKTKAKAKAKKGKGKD
Chain of UniProt Q8N6T7 (whole entry, looked up): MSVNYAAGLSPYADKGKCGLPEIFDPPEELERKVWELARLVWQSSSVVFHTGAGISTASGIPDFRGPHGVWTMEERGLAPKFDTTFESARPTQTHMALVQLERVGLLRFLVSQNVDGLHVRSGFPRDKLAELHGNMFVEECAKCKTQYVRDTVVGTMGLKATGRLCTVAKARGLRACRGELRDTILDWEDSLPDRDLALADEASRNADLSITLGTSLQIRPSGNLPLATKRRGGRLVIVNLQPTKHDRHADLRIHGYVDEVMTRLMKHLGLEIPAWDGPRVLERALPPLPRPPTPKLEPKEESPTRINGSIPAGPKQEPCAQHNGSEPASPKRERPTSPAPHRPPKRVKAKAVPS
Chain of UniProt P11474 (whole entry, looked up): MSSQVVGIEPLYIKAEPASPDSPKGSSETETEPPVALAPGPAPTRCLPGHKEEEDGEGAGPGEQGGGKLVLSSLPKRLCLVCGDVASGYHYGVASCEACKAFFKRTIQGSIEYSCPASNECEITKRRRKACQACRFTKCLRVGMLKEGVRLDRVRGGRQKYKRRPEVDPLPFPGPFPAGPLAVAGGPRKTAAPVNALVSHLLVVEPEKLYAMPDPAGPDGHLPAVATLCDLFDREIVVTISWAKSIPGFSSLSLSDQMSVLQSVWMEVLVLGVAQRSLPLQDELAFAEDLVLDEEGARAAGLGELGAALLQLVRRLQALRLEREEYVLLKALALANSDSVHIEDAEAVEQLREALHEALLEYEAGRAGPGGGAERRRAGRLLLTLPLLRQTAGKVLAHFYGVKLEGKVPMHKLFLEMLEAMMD
Chain of UniProt Q9NTG7 (whole entry, looked up): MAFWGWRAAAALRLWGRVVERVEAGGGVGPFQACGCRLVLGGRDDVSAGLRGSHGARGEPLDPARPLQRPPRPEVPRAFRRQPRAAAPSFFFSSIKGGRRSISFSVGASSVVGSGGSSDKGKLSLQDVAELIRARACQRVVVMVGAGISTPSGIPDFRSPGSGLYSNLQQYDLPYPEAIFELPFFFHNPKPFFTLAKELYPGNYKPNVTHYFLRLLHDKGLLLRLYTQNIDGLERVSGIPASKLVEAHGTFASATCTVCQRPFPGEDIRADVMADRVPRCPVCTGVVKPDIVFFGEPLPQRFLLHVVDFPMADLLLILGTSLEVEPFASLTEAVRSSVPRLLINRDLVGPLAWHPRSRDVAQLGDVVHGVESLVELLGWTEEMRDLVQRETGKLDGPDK
Chain of UniProt P23739 (whole entry, looked up): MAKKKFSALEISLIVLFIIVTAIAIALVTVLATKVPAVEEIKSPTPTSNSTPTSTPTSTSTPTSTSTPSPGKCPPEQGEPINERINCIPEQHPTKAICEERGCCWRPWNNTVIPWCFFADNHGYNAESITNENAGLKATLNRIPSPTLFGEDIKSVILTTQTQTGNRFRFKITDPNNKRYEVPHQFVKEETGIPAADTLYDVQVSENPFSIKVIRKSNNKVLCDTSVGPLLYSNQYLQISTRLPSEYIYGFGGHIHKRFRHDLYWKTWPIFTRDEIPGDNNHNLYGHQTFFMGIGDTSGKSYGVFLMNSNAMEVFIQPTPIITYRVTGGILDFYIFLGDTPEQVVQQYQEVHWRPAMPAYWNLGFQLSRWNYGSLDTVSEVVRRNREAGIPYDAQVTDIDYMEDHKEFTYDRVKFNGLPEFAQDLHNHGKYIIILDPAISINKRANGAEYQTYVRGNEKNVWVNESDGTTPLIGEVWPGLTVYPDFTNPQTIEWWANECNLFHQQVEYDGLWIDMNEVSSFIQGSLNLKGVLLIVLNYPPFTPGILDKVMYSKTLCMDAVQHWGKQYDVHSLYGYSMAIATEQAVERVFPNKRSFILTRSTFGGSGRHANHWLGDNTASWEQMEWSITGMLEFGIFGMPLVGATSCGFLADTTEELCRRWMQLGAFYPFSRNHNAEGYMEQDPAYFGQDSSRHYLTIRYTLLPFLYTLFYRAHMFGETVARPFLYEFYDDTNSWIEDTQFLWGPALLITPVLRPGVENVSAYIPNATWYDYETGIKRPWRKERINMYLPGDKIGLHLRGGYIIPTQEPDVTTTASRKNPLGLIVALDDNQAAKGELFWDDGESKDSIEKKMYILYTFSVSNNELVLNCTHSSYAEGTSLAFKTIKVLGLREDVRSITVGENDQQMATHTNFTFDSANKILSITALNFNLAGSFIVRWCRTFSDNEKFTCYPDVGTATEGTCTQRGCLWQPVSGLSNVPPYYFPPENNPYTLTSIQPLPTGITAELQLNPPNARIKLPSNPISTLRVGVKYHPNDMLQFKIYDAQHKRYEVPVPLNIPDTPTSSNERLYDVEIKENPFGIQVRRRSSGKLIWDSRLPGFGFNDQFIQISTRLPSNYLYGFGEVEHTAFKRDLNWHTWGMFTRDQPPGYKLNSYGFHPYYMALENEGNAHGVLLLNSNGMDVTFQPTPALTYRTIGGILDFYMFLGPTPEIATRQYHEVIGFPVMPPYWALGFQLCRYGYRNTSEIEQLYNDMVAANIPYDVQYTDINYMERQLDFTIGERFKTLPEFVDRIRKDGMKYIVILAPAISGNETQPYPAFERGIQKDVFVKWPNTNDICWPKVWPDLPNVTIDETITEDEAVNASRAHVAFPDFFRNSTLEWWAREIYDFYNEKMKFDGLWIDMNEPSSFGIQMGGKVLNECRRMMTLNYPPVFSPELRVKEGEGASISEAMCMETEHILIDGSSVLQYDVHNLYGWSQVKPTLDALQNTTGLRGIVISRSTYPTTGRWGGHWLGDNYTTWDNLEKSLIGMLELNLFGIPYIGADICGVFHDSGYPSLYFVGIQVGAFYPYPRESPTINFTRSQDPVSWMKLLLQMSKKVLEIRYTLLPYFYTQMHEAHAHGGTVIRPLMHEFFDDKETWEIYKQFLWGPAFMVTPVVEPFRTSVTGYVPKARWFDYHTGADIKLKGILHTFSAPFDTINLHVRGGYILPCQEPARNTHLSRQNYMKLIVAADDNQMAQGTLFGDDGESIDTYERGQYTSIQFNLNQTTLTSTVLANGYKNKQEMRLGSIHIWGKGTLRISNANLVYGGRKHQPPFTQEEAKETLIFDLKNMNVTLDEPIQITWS
Chain of UniProt P80299 (whole entry, looked up): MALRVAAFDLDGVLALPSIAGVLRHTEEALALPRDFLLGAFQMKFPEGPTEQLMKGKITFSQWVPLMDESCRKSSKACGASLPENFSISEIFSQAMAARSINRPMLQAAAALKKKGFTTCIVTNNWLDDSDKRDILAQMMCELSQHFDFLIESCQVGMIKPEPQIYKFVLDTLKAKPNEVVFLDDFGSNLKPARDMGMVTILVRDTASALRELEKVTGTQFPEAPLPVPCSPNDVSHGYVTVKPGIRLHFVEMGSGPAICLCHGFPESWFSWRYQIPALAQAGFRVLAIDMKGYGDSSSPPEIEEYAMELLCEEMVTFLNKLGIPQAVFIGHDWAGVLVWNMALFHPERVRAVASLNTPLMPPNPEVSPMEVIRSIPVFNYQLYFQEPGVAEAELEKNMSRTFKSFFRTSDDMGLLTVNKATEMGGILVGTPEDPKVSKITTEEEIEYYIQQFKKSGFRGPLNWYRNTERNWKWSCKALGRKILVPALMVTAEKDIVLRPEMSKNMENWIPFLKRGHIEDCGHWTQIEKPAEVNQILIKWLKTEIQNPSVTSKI
Chain of UniProt P35354 (whole entry, looked up): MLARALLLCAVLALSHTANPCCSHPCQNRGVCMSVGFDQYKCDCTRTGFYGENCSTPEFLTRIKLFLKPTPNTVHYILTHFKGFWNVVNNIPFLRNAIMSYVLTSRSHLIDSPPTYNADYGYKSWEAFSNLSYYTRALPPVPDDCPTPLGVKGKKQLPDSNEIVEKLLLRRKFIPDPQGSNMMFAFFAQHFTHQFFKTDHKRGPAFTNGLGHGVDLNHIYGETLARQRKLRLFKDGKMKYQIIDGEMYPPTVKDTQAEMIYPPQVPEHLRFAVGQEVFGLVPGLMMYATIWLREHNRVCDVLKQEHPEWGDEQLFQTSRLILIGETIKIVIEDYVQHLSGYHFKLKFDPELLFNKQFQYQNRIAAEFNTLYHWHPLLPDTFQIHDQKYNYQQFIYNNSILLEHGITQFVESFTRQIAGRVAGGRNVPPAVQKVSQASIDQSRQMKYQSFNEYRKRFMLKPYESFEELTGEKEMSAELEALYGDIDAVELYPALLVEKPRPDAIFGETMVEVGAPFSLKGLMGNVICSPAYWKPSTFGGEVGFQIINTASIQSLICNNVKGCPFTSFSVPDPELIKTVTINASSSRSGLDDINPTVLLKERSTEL
Chain of UniProt Q695T7 (whole entry, looked up): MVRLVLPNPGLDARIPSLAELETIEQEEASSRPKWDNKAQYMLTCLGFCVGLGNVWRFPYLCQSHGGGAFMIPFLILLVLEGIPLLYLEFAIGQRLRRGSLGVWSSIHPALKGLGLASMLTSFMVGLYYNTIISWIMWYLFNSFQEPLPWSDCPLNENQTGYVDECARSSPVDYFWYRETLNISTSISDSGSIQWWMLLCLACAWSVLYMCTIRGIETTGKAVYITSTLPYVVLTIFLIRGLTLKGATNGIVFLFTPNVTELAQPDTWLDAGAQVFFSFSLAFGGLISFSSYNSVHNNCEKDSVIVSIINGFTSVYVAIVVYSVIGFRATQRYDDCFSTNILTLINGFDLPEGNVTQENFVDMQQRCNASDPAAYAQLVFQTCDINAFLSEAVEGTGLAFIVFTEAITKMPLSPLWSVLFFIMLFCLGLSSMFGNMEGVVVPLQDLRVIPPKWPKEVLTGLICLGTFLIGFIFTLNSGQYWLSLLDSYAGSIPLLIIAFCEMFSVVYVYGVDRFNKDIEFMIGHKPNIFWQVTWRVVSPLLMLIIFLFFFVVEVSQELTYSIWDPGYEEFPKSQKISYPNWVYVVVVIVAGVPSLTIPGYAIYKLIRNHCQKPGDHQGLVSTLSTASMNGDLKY

SMILES | target | assay | test system | conditions | IC50
C[C@@H](c1cc(OCC(F)F)ccn1)n1cnc2c(N)nc(Cl)nc21 | PDE3A (Homo sapiens, UniProt Q14432) | enzyme activity | – | – | > 10 µM
CCCCOc1ccc(S(=O)(=O)N(Cc2ccc(N(CC(=O)OC)S(C)(=O)=O)cc2)c2ccc(CN(Cc3ccc(C)cc3)S(C)(=O)=O)cc2)cc1 | ESRRA (Homo sapiens, UniProt P11474) | – | – | – | 1.47 µM
O=C(Nc1ccc(OC(F)(F)F)cc1)N[C@H]1CC[C@H](Oc2ccc(C(=O)OCc3ccccc3)cc2)CC1 | Ephx2 (Rattus norvegicus, UniProt P80299) | enzyme activity, inhibitor | rat | – | 0.054 µM
CC1=NN(c2cccc(Cl)c2)C(=O)/C1=C\c1cn(C[C@H](O)COc2cc(O)c3c(=O)cc(-c4ccccc4)oc3c2)c2ccccc12 | PTGS2 (Homo sapiens, UniProt P35354) | enzyme activity, inhibitor | – | – | 0.13 µM
COc1ccc(-c2nnc(SCc3ccc(Cl)nc3)o2)c(O)c1 | telomerase | enzyme activity, inhibitor | – | – | 2.3 µM
NC(=S)N/N=C/c1ccc([N+](=O)[O-])cc1 | tyrosinase | enzyme activity, inhibitor | – | – | 0.05 µM
Cc1cc(C)cc(S(=O)(=O)c2c(C(=O)NC3CC4(C3)CN(Cc3n[nH]c(=O)[nH]3)C4)[nH]c3ccc(Cl)cc23)c1 | Gag-Pol polyprotein, reverse transcriptase (gag-pol, Human immunodeficiency virus 1, UniProt P03366) | HIV-1 reverse transcriptase activity, inhibitor | – | – | 0.17 µM
N#Cc1c(C(F)(F)F)cc(-c2ccc(Cl)cc2)nc1SCC(=O)Nc1ncco1 | TAAR1 (Homo sapiens, UniProt Q96RJ0) | antagonist, calcium mobilization | – | – | 0.206 µM
O=C1NC(=O)N(CCc2ccccc2)/C1=C/c1ccc(O)cc1 | EGFR | inhibitor | – | – | 19 µM
O=C(CSC(=S)Nc1ccc([N+](=O)[O-])cc1)c1cc2ccccc2oc1=O | alpha-glucosidase | – | – | – | 85 ± 4 µM
COc1ccc(C2=C(C#N)C(OCC(=O)N/N=C/c3ccccc3)NC(c3nc4ccccc4[nH]3)=C2)cc1 (stereo not drawn) | DNA gyrase | enzyme activity | – | – | 0.44 µM
O=S(=O)(Nc1ccc(S(=O)(=O)C(F)(F)F)cc1Oc1cc(F)cc(F)c1)c1ccccc1 | SLC6A19 (Homo sapiens, UniProt Q695T7) | inhibitor | – | – | 0.035 µM
COc1ccc(O[C@@H]2O[C@H](C(=O)O)[C@@H](O[C@@H]3O[C@H](COS(=O)(=O)O)[C@H](OS(=O)(=O)O)[C@H](O[C@@H]4O[C@H](C(=O)O)[C@@H](O[C@@H]5O[C@H](COS(=O)(=O)O)[C@H](OS(=O)(=O)O)[C@H](O)[C@H]5NC(C)=O)[C@H](O)[C@H]4O)[C@H]3NC(C)=O)[C@H](O)[C@H]2O)cc1 | Midkine | binding to tetrasaccharides, inhibitor | – | – | 254 µM
CC(=O)N[C@H]1NC[C@H](C(=O)O)[C@H](O)[C@@H]1O | cytosolic sialidase (rat mammary gland) | enzyme activity, inhibitor | – | – | 990 µM
Clc1ccccc1Cn1cc(CSc2nc(-c3ccccc3)c(-c3ccccc3)[nH]2)nn1 | MAL12 (Saccharomyces cerevisiae S288c, UniProt P53341) | enzyme activity, inhibitor | – | – | 85.6 ± 0.4 µM
NC(=O)c1cn(Cc2ccc(F)cc2)cc(O)c1=O | Tripartite terminase subunit 3, C-terminal nuclease domain (Human betaherpesvirus 5, UniProt P16732) | inhibitor | – | – | > 50 µM
CC(C)C[C@@H](NC(=O)[C@H](C)NC(=O)CNC(=O)[C@@H](NC=O)C(C)C)C(=O)N[C@@H](C)C(=O)N[C@@H](C(=O)N[C@H](C(=O)N[C@@H](C(=O)N[C@@H](Cc1c[nH]c2ccccc12)C(=O)N[C@H](CC(C)C)C(=O)N[C@@H](Cc1c[nH]c2ccccc12)C(=O)N[C@H](CC(C)C)C(=O)N[C@@H](Cc1c[nH]c2ccccc12)C(=O)N[C@H](CC(C)C)C(=O)N[C@@H](Cc1c[nH]c2ccccc12)C(=O)NCCO)C(C)C)C(C)C)C(C)C | Na+/K+-ATPase (mammalian) | enzyme activity, inhibitor | – | purified enzyme | 8.1 µM

SMILES | target | assay | test system | conditions | IC50
Nc1ccn(C2OC(CO)C(O)C2O)c(=O)n1 (stereo not drawn) | yeast alpha-glucosidase | inhibitor | – | – | 10.3 µM
Cc1cccc2c(NCc3ccc(C(=O)Nc4ccccc4N)cc3)c3ccccc3nc12 | HDAC1 (Homo sapiens, UniProt Q13547) | – | – | – | 0.248 µM
COc1ccc(O[C@@H]2O[C@H](COS(=O)(=O)O)[C@H](OS(=O)(=O)O)[C@H](O[C@@H]3O[C@H](C(=O)O)[C@@H](O[C@@H]4O[C@H](COS(=O)(=O)O)[C@H](OS(=O)(=O)O)[C@H](O[C@@H]5O[C@H](C(=O)O)[C@@H](OS(=O)(=O)O)[C@H](O)[C@H]5OS(=O)(=O)O)[C@H]4NC(C)=O)[C@H](O)[C@H]3OS(=O)(=O)O)[C@H]2NC(C)=O)cc1 | Midkine | binding to tetrasaccharide | – | – | 10.6 µM
O=C(CSC(=S)Nc1cccc([N+](=O)[O-])c1)c1cc2ccccc2oc1=O | alpha-glucosidase | – | – | – | 102 ± 4.7 µM
N=C(N)N/N=C1/C=C2C/C(=N\NC(=N)N)C=C2C1 | Mycosin-1 (Mycolicibacterium thermoresistibile, UniProt G7CDQ2) | inhibitor | – | – | 48 µM
N=C(N)NCCC[C@H](NC(=O)[C@H](CSSC[C@H](NC(=O)[C@H](Cc1ccc(O)cc1)NC(=O)[C@H](Cc1c[nH]c2ccccc12)NC(=O)[C@H](CCCNC(=N)N)NC(=O)[C@@H](N)Cc1c[nH]c2ccccc12)C(=O)N[C@@H](CCCNC(=N)N)C(N)=O)NC(=O)[C@H](Cc1ccc(O)cc1)NC(=O)[C@H](Cc1c[nH]c2ccccc12)NC(=O)[C@H](CCCNC(=N)N)NC(=O)[C@@H](N)Cc1c[nH]c2ccccc12)C(N)=O (single isomer, unassigned) | phage lambda integrase | excision, inhibitor | – | without DTT, dimer equivalents | 0.01 µM
Nc1ncnc2c1ncn2[C@@H]1O[C@H](COS(=O)(=O)NC(=O)CCC(=O)c2ccccc2C(=O)O)[C@@H](O)[C@H]1O | 2-succinylbenzoate--CoA ligase (menE, Escherichia coli, UniProt P37353) | – | – | – | 0.024 ± 0.003 µM
CC(C)C(NC(=O)[C@@H](N)c1ccccc1)C(=O)NCc1cc(=O)c(O)c[nH]1 (stereo partly drawn) | tyrosinase | diphenolase activity, inhibitor | – | – | 2.79 µM
COc1cc2ncnc(Nc3ccc(Oc4ccccc4)cc3)c2cc1OC | Src kinase | enzyme activity, inhibitor | – | – | 0.044 to 0.088 µM
CCCCCCCCCCCCCC(=S)NCCCC[C@H](NC(=O)c1ccc(C(=O)c2ccc(OC/C=C/CN=[N+]=[N-])cc2)cc1)C(=O)N[C@@H](C)C(=O)N[C@@H](C)C(=O)OC | SIRT6 (Homo sapiens, UniProt Q8N6T7) | deacetylase activity, inhibitor, HPLC | – | added: H3K9ac substrate | 619 ± 49 µM
OC[C@H](OCc1ccccc1Cl)[C@H](O)C[S@@+]1C[C@@H](O)[C@H](O)[C@H]1CO | Si (Rattus norvegicus, UniProt P23739) | isomaltase activity, inhibitor | rat intestinal disaccharidases | – | 0.26 µM
Cc1[nH]c(C(=O)Nc2ccc(C(=O)NCC(=O)O)cc2)c(Cl)c1Cl | gyrB (Escherichia coli, UniProt P0AES6) | enzyme activity, inhibitor | – | – | 0.28 µM
C#CCCCC1(CCC(=O)N[C@@H](CCCCNC(=S)CCC(=O)O)C(=O)N[C@@H](C)C(=O)N[C@@H](C)C(=O)OC)N=N1 | SIRT3 (Homo sapiens, UniProt Q9NTG7) | deacetylase activity, inhibitor, HPLC | – | added: H3K9ac substrate | > 5000 µM
O=C(Nc1ccc(C(F)(F)F)cc1)Nc1ccc(C(F)(F)F)cc1Cl | MRGPRX2 (Homo sapiens, UniProt Q96LB1) | antagonist | – | – | 0.8 µM
O=[N+]([O-])c1ccccc1CO[C@@H](CO)[C@H](O)C[S@@+]1C[C@@H](O)[C@H](O)[C@H]1CO | rat intestinal maltase | maltase activity, inhibitor | rat intestinal disaccharidases | – | 0.13 µM
O=C(Nc1ccccc1)[C@]12C[C@H]1/C(=N\O)c1ccccc1O2 | GRM1 (Homo sapiens, UniProt Q13255) | negative allosteric modulator | – | – | 2.1 µM
